Assay results collected from several papers.
Compare with care: the assays were run in different laboratories. Numbers after ± are the reported error.

Under “radiochemical stability duration”, `C[C@]12CC[C@@H]3c4ccc(OCC(=O)N[C@@H](CCCCNC(=O)CN5CCN(CC(=O)[O-])CCN(CC(=O)[O-])CCN(CC(=O)[O-])CC5)C(=O)O)cc4CC[C@H]3[C@@H]1CCC2=O.[68Ga+3]` is recorded as no less than 4 h (radio-HPLC; room temperature).
For `CCC(C)N(C)C(=O)c1nc(-c2cccc(C(F)(F)[18F])c2)c2ccccc2n1` (centres unmarked), the radiochemical purity was greater than 99% (normal saline; 6 h, 37 °C).
`CC(C)C[C@@H]1NC(=O)[C@@H]2CCCN2C(=O)[C@H](CO)NC(=O)[C@@H](NC(=O)[C@H](Cc2c[nH]cn2)NC(=O)[C@H](CO)NC(=O)[C@H](Cc2ccc(O)cc2)NC(=O)[C@H](CC(=O)O)NC(=O)CNC(=O)CN2CCN(CC(=O)O)CCN(CC(=O)O)CCN(CC(=O)O)CC2)CSSC[C@@H](C(=O)N[C@H](C(=O)N[C@@H](Cc2ccc(O)cc2)C(=O)N2CCC[C@H]2C(=O)N[C@@H](CC(=O)O)C(=O)N2CCC[C@H]2C(=O)N[C@@H](CCC(=O)O)C(=O)NCC(=O)NCC(=O)NCC(N)=O)[C@@H](C)O)NC(=O)[C@H](CCCCN)NC(=O)[C@H](Cc2c[nH]c3ccccc23)NC(=O)[C@H](Cc2c[nH]c3ccccc23)NC(=O)[C@@H]2CCCN2C(=O)[C@H](Cc2ccc(O)cc2)NC(=O)[C@H](Cc2ccc(O)cc2)NC(=O)[C@H](CCCNC(=N)N)NC1=O` [gallium-68 labelled] gave a radiochemical purity of 91.2 ± 2.5% (radio-HPLC; 5% fetal bovine serum; 1 h, room temperature).
`O=C(NCC1OC2CCC=CCCC2O1)c1ccc(COCCOCCOCC[18F])cc1` (centres unmarked) has a radiochemical purity of 94% (PBS; 2 h, 37 °C).
For `O=C([O-])CN1CCN(CC(=O)[O-])CCN(CC(=O)NC[C@H]2CC[C@H](C(=O)N[C@H](Cc3cnc4ccccc4c3)C(=O)NCCCC[C@H](NC(=O)N[C@@H](CCC(=O)O)C(=O)O)C(=O)O)CC2)CCN(CC(=O)[O-])CC1.[64Cu+2]`, the radiochemical purity was greater than 95% (radio-HPLC; 5% BSA; 24 h, 37 °C).
For `CCN(CC)c1ccc2c(-c3ccc(S(=O)(=O)NCCNC(=O)CN4CCN(CC(=O)[O-])CCN(CC(=O)O)CCN(CC(=O)[O-])CC4)cc3S(=O)(=O)[O-])c3ccc(=[N+](CC)CC)cc-3oc2c1.[64Cu+2]`, “radiochemical stability time” read greater than 8 h (after HPLC purification).
For `C[C@H]1C[C@@H](Oc2cccc(F)n2)CCN1Cc1cnc(N[11C](C)=O)s1`, the radiochemical stability was greater than 97% (HPLC; formulation; 2 h, room temperature).
The radiochemical purity of `COc1cc2c(cc1OC)CN(CCCCn1ccc3cc(OCC[18F])ccc31)C2` is reported as greater than 99% (saline; 2 h, ambient).

For quick reference, copied from above:
Under “radiochemical stability duration”, `C[C@]12CC[C@@H]3c4ccc(OCC(=O)N[C@@H](CCCCNC(=O)CN5CCN(CC(=O)[O-])CCN(CC(=O)[O-])CCN(CC(=O)[O-])CC5)C(=O)O)cc4CC[C@H]3[C@@H]1CCC2=O.[68Ga+3]` is recorded as no less than 4 h (radio-HPLC; room temperature).
